{"data": "Assay results gathered from unrelated publications", "rep main protease": "Replicase polyprotein 1ab, main protease (rep, Severe acute respiratory syndrome coronavirus 2, UniProt P0DTD1)", "note": "Lines come from different studies, so protocols differ. ± gives the spread as reported."}
{"Structure (SMILES)": "CC[C@H](C)[C@H](NC(=O)[C@H](CCCCN)NC(=O)[C@@H](NC(=O)[C@H](CCC(N)=O)NC(=O)[C@H](CCCNC(=N)N)NC(=O)[C@@H]1CSCC(=O)N[C@H](Cc2ccc(O)cc2)C(=O)N[C@@H](CC(C)C)C(=O)N[C@@H](CCC(N)=O)C(=O)N[C@@H](Cc2ccc(O)cc2)C(=O)N[C@@H](C)C(=O)N[C@@H](C(C)C)C(=O)N[C@@H](CC(C)C)C(=O)N[C@@H](CCCNC(=N)N)C(=O)N[C@@H](Cc2c[nH]cn2)C(=O)N[C@@H](CCCCN)C(=O)N[C@@H](CCCNC(=N)N)C(=O)N[C@@H](CCCNC(=N)N)C(=O)N[C@@H](CCC(=O)O)C(=O)N1)[C@@H](C)CC)C(=O)N[C@@H](Cc1c[nH]c2ccccc12)C(=O)N[C@@H](Cc1ccccc1)C(=O)N[C@@H](CCC(N)=O)C(=O)N[C@@H](CC(N)=O)C(=O)N[C@@H](CCCNC(=N)N)C(=O)N[C@@H](CCCNC(=N)N)C(=O)N[C@@H](CCSC)C(=O)N[C@@H](CCCCN)C(=O)N[C@@H](Cc1c[nH]c2ccccc12)C(=O)N[C@@H](CCCCN)C(=O)N[C@@H](CCCCN)C(N)=O", "target or system": "rep main protease", "assay": "enzyme activity, inhibitor", "quantity": "IC50", "value": "0.049 µM"}
{"Structure (SMILES)": "CC(C)(C)[C@H](NC(=O)NC1(CS(=O)(=O)C(C)(C)C)CCCCC1)C(=O)N1C[C@H]2[C@@H]([C@H]1C(=O)N[C@H](C#N)C[C@@H]1CCNC1=O)C2(C)C", "target or system": "rep main protease", "assay": "differential scanning fluorimetry", "conditions": "200 µM", "quantity": "melting temperature", "value": "70.6 ± 0.1 °C"}
{"Structure (SMILES)": "COc1ccc2ncc(F)c(C(O)C[C@H]3OC[C@H](NCc4ccc(Cl)c(Cl)c4)CO3)c2n1 (stereo partly drawn)", "target or system": "Mycobacterium tuberculosis", "system": "H37Rv katG deletion", "quantity": "MIC", "value": "0.125 µg/mL"}
{"Structure (SMILES)": "CC(C)C(=O)OC[C@H]1O[C@@](C#N)(n2ccc(N)nc2=O)[C@H](O)[C@@H]1O", "target or system": "SARS-CoV-2", "assay": "viral replication", "system": "Calu-3, Alpha", "quantity": "EC50", "value": "0.8 ± 0.04 µM"}
{"Structure (SMILES)": "CC(C)CC(C(=O)N1CC2(CC1C#N)C(=O)Nc1ccccc12)N(C)C(=O)c1cc2c(F)cc(F)c(F)c2[nH]1 (stereo not drawn)", "target or system": "SARS-CoV-2", "assay": "viral replication, infectious virus", "system": "Vero E6-TMPRSS2, Omicron variant", "conditions": "0.0333 µM", "quantity": "inhibition", "value": "44%"}
{"Structure (SMILES)": "O=C(NC1CCN(c2ncnc3[nH]cnc23)CC1)c1cccc(NS(=O)(=O)c2ccc(C(F)(F)F)cc2)c1", "target or system": "Replicase polyprotein 1ab, nsp14 Q313R (rep, Severe acute respiratory syndrome coronavirus 2, UniProt P0DTD1, Q6238R)", "assay": "thermal shift", "system": "SARS-CoV-2", "quantity": "ΔTm", "value": "1.7 °C"}
{"Structure (SMILES)": "CCN(c1nc(N)c(C(=O)NC(=N)N)nc1Cl)C(C)C", "target or system": "Calu-3", "assay": "pseudoparticle entry", "system": "SARS-CoV-2 spike pseudotyped particles", "quantity": "IC50", "value": "> 30 µM"}
{"Structure (SMILES)": "Cn1cc(CNC23CC4CC(CC(C4)C2)C3)nn1", "target or system": "Matrix protein 2 (Influenza A virus, UniProt P0DOF5, S31N)", "assay": "proton channel activity, inhibitor", "system": "Influenzavirus A, S31N mutant", "conditions": "100 µM", "quantity": "inhibition", "value": "28%"}
{"Structure (SMILES)": "CC1OC(OC2C(OC(=O)C34CCC(C)(C)CC3C3=CCC5C6(C)CCC(OC7OC(CO)C(O)C(O)C7O)C(C)(C)C6CCC5(C)C3(C)CC4O)OCC(O)C2O)C(O)C(O)C1OC1OCC(O)C(OC2OCC(O)C(OC3OCC(O)C(O)C3O)C2O)C1O (stereo not drawn)", "target or system": "SARS-CoV-2", "assay": "viral infection", "system": "Vero cells, gamma P.1", "quantity": "IC50", "value": "1.46 µM"}
{"Structure (SMILES)": "COc1ccc2ncc(F)c(C[C@H](O)[C@H]3OC[C@H](NCc4ccc5c(c4)OCCO5)CO3)c2c1", "target or system": "Mycobacterium tuberculosis", "system": "H37Rv katG deletion", "quantity": "MIC", "value": "1 µg/mL"}
{"Structure (SMILES)": "O=C(CCCCCCc1ccc(O)c(O)c1)c1c(O)cccc1O", "target or system": "SARS-CoV-2", "assay": "viral replication, MTT", "system": "HEK293T ACE2, Delta B.1.617.2", "quantity": "EC50", "value": "4.3 µM"}
{"Structure (SMILES)": "COc1ccc(NC(=O)c2ccc(-c3ccc(C(=N)N)cc3C)cc2)cc1N1CCN(C)CC1", "target or system": "Calu-3", "assay": "pseudoparticle entry", "system": "SARS-CoV-2 spike pseudotyped particles", "quantity": "IC50", "value": "0.35 µM"}
{"note": "For quick reference, copied from above:"}
{"Structure (SMILES)": "COc1ccc2ncc(F)c(C[C@H](O)[C@H]3OC[C@H](NCc4ccc5c(c4)OCCO5)CO3)c2c1", "target or system": "Mycobacterium tuberculosis", "system": "H37Rv katG deletion", "quantity": "MIC", "value": "1 µg/mL"}
